Measured values from different studies.
Each numbered part is a random draw from the data of one study; scales do not carry over between parts. Substitutions count along the parent as printed.

Series 1
Target: RNA binding protein fox-1 homolog 2, RRM domain, GST-SBP tag (RBFOX2, Homo sapiens, UniProt O43251-10, residues 100-194)
Method: RNA Bind-n-Seq
Form: RNA
Sample: in vitro
Tested at: 365 nM
Setting: natural RNA segment, single round, ends assumed
Baseline: no-protein control
Direction: higher = stronger binding
Quantity: RBNS enrichment (R)
All sequences stand within: GGGAGUUCUACAGUCCGACGAUC … UGGAAUUCUCGGGUGCCAA
Construct (chain): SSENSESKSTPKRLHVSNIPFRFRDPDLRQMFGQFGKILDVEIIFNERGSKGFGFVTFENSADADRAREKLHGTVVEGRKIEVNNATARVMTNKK
GUUGAGGCCUUCUUUAUUCCUGCUCUGUCAGCUUUCAUGGUCACUGGAAAUCACUGCCACAGUACAGGCUGUGACUGCAGAUGCCAAAAUGAUUAGGAUGCCACAGAUGG: 0.37
AAGACCAGGUGCUGGGAUUAAGGAAACACAGGUCUGAGGGUCUGAGGGAAGGGGCCUGCCUCCCAGGGAGUCAACAUAGAUGUUCCCCAUGAACAGGGAUUUGACUUUGG: 0.676
CAUUAACUGGCCAGCUCCUCUGAUUUCUGCAGCAUCGCAACAGGUUCGAAGAUGGGUUGUGGCUGGGUAUUCCCUCCCAUGGUGUUUCCUCUGGGAUGCUCUUCAUUAUC: 0.548
CUGUAUAUGUUGAAAACGUAAUACCUGUUAAUGUCCUAAUGAAUCACGUUUUGCAGAAAACACCGUAAGAAACACUUCAGUCUUUCUGUAGUUUCCAUGCAUAUUUCACC: 1.46
UUUAAUAUUUGAUGCUCAUAUGUGUCUUUAGUGUGAGCUCUUGUGUUUUGAAAUGAUUGCUUCAGUCUUUGCCUUUGUUUGCAUUUGUGUUUAGUGAAAACUAGAGAAAC: 1.05
UUGUCUCUGUUCUGUUUAAACUUAUGUAGAUUAUUAUAAAUUGAUGUAAACCAUGUGAGAGGGAAAUGUUAAUAAAAAAAUUGCAAAGCCUCAACAUUUGCACAAAACUC: 0.783
UUGAUUUUGAUCAGCCUUUUGAAGAUGGGUGUCGUUUCCCUAACUUAUCUCACAGAAUUUUGAGUGUUGUAUUUGGCAAGUUCUGAGAUUUGCCUUCUGUCUUAUGCCAA: 0.769
GCGCUAUGGACAAAAAAAGAAAAAGAUCCACUAAAAGAAAGAUUUAGAUGGCUUCUUGCCAGUUUGAGCCUAAUCUGAUUCUUACAGUUUUACCUUCUUGAACCAAUGUA: 1.12
UCAGAGCUUGUCUCCUUGGCUUCCAACCCCAGAAAUGCCUGCUGGGCCUUAAGCUUUCCAGGGGCCGGGGCAGUGGGGAGCCCCCAUCCCUUCACACCGCCACCAACUAA: 0.692
GUGCAGCUGUGUCUUAUGUAUUUAUAUGUAUGUCGCUCUUCAAAAGCAACCUAGUUUAUGGGGCAGCUGGACUUUGCAUGUUAGAGUGAGCCCCAAGCCCCUUGGCCCAC: 35.1
CCAAUGUCCCCAGGGGGCAACACCCCUCUCUUGGACUUCAGGGUCAAGAGAAUCUCUGCUGGCUACCCCAGGACUUCUCAUUAUAGAUUUCCUGGAGCACGCAGCAGAAA: 0.203
GAGAGAGAUCUACCCAUUAGAAUUGAUUUAGGUGCCCAUUGCAUCUUUUGUACUAUGGAGUUGUUUACAGUAAGCAUGACUGAACAAGCACUAACAUCCUCCUACACCGG: 48.3

Series 2
Target: Ras GTPase-activating protein-binding protein 1, full length (G3BP1, Homo sapiens, UniProt Q13283)
Chain of UniProt Q13283 (whole entry, looked up): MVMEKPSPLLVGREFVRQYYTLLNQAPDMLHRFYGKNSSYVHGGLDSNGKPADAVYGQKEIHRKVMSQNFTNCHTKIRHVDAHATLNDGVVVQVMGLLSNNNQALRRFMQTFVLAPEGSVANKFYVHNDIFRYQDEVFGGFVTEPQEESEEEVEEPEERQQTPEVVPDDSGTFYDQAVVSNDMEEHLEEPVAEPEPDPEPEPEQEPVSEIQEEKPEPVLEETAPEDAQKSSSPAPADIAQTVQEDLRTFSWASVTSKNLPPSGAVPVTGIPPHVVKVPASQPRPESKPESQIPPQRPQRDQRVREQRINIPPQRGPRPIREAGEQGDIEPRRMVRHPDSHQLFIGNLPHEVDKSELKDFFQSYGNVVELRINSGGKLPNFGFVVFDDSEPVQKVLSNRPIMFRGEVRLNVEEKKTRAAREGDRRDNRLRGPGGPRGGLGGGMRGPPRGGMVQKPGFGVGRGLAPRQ
Method: RNA Bind-n-Seq
Form: RNA
Sample: in vitro
Tested at: 200 nM
Setting: whole 134-nt RNA, ends assumed
Together with: 150 mM LiCl
Baseline: input library
Direction: higher = stronger binding
Quantity: log2 enrichment
Each molecule: 7-deaza-guanosine replaces G
All sequences stand within: GGGAGUUCUACAGUCCGACGAUC … UGGAAUUCUCGGGUGUCAAGG
UGUGCUACACAUCGUAUGUACCGAAUCGGGGUUUUUUUGGGGUUUUUUUGGGGUUUUUUUGGAAAGUAUUAUGUUACGCCGUUCGGAUCU: 1.91
CCUGUGCUACACAUCGUAUGUACCGAAUCGGGUUUUUUGGGGUUUUUUGGUUUUUUGGGGAAAGUAUUAUGUUACGCCGUUCGGAUCUGC: 0.211
UCAAGUCCUGUGCUACACAUCGUAUGUACCGAAUCGGGGCCGGGCCGGGCCGGGAAAGUAUUAUGUUACGCCGUUCGGAUCUGCACUUCC: 0.671
UGUGCUACACAUCGUAUGUACCGAAUCGGGGUUUUUUUGGGGAAAAAGGGGAAAAAAAGGGGAAAGUAUUAUGUUACGCCGUUCGGAUCU: -0.458
AAGUCCUGUGCUACACAUCGUAUGUACCGAAUCGGAAAAGGGGAAAAGGGGAAAAGGAAAGUAUUAUGUUACGCCGUUCGGAUCUGCACU: 0.288
UUCCUUUCCGUUGUGUGUUUUAAAGGUGUGUGCCCUCUUCCUGAUUCUGGAGAAAAAUGCCGGUCCGGAAGCAAGGUGAGAGUUUAUUCC: 1.24
UCCUGUGCUACACAUCGUAUGUACCGAAUCAAAUUUAAACCCCCCCAAAUUUUUUUAAAAAAGUAUUAUGUUACGCCGUUCGGAUCUGCA: 1.6
UCAGGAAGUAAAAACAAAUGGAAAUGCUUCGGAUAGUGGCAGGGGUGGGGGUUGCUAAGGAAAGGGUGGGAUGGGAGUGGGUAAAGAGUU: -0.455
UCCUGUGCUACACAUCGUAUGUACCGAAUCGGGGCCCCCCGGCCCCCCGGCCCCCCGGGAAAGUAUUAUGUUACGCCGUUCGGAUCUGCA: 0.338
ACCAUGCAGGUGGGCAUCCUUGGGAAGUGGGGCAAGGGGGGGAUAGGGAGGGGGGUAACACUUUGGGAACAGGUGGUCCCAGGUCGUUUC: 0.352
UCCUGUGCUACACAUCGUAUGUACCGAAUCGGGUUUUUGGGAAAAAAAGGGUUUUUGGGAAAGUAUUAUGUUACGCCGUUCGGAUCUGCA: -2.17

Series 3
Target: ABI1, truncated, D143A, DHFR fusion (Arabidopsis thaliana)
Method: DHFR PCA, deep sequencing
Sample: yeast
Setting: methotrexate growth selection, single substitutions
Together with: (+)-ABA 710 µM
Baseline: wild-type fitted maximum
Direction: higher = stronger binding
Quantity: relative binding score
Parent: PYL1, truncated, DHFR fusion (Arabidopsis thaliana); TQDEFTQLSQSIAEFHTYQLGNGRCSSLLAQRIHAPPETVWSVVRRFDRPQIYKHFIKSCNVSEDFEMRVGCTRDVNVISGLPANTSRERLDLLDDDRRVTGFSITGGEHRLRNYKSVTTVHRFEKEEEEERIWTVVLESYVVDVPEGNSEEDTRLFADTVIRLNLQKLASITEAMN
T120M: 24.2%
N114Q: 80.7%
I172F: 95.8%
N61R: 106%
V100P: -10.3%
E89W: 13.9%
F66I: 93.5%
C72D: 107%
V44T: 74.4%
E147S: 97.2%
L20C: 101%
R111C: 77%
T154Y: 15.5%
N77Y: 102%
T119Q: 97.2%
T39E: 103%
K54W: -8.3%
R74V: -14.5%
E174S: 96%
V78P: 86.6%
R24N: 108%
K54P: -3.24%
E131L: 111%
E64T: 104%
L91H: 2.56%

Series 4
Target: Sal-like protein 4, full length isoform A (SALL4, Homo sapiens, UniProt Q9UJQ4, residues 1-1053)
Chain of UniProt Q9UJQ4 (whole entry, looked up): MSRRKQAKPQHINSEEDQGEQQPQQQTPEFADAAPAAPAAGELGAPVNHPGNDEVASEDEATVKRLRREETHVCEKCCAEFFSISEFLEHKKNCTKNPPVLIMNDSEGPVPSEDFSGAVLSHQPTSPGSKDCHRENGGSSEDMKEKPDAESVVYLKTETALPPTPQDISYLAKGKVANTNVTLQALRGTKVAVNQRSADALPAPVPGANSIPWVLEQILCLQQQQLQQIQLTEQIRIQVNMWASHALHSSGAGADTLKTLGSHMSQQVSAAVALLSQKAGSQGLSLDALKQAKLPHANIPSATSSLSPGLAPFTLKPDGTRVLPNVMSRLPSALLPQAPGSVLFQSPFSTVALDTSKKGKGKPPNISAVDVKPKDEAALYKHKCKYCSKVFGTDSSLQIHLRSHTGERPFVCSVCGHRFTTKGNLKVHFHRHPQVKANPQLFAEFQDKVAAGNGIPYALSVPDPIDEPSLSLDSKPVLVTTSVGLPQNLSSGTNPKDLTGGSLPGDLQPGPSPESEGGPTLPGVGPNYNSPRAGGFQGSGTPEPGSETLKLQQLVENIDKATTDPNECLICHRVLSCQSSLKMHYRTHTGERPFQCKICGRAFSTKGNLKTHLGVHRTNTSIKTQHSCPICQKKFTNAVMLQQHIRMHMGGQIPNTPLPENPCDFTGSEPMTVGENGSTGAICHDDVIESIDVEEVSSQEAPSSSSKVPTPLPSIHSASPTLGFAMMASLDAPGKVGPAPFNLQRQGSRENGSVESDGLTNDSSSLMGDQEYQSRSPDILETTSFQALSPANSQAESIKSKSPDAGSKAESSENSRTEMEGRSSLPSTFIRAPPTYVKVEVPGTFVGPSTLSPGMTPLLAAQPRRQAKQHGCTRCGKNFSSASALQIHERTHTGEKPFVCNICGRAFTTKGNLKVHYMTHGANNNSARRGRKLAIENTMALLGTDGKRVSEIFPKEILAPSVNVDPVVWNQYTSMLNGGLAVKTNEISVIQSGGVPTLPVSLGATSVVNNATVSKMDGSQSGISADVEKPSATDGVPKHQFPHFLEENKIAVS
Method: universal PBM
Form: double-stranded DNA, one strand shown
Sample: in vitro
Tested at: 600 nM
Setting: 8-mer, flanks averaged, mean of replicates
Direction: higher = stronger binding
Quantity: E-score
CGGGAAGA: -0.0635
GACCCGTC: -0.374
GAGACCCA: -0.224
CTCTGGCC: -0.181
AGCCAGAT: -0.0113
AATCGGCT: 0.083
TACGACAA: 0.128
GTTTGTGA: 0.0159
CCACACTC: -0.108
CGCCACAA: -0.118
AGCGGTTC: -0.135
AAAGCTCT: -0.103
AGTCAATC: 0.0406
TAGCCCCA: -0.179
AAGGTAGA: 0.133
AAGTTTTC: 0.174
CGGAGAGA: -0.244
TGCTCTAA: 0.0112
CCTAACCG: -0.319
ACGTCTCG: -0.0532
CGACATTC: -0.019
AGTTATTA: 0.437
ATCTACCG: -0.0006
ACAGGATG: 0.0278
ACAATAAT: 0.428

Series 5
Target: CCND2, cyclin fold, Cln2 fusion (human)
Method: yeast growth competition, sequencing
Sample: yeast
Setting: weak parent motif
Baseline: not given
Direction: higher = stronger binding
Quantity: normalised enrichment score
Parent: E2F2 docking peptide (human); LPAKRKLDLEGIG
LPAKRKLDFEGIG [L9F]: 2.49
LPAKRKLDLEGAG [I12A]: 0.523
LPAKRKADLEGIG [L7A]: 0.262
LAAKRKLDLEGIG [P2A]: 0.14
LPAKAKLDLEGIG [R5A]: 0.244
LPAARKLDLEGIG [K4A]: 0.858
LPAKRKLDLEAIG [G11A]: 0.131

Series 6
Target: Interferon regulatory factor 7, full length, phosphomimetic (IRF7, Homo sapiens, UniProt Q92985, residues 1-503, S471D/S472D/S475D/S476D/S477D/S483D/S484D/S487D)
Chain of UniProt Q92985 (whole entry, unmodified, looked up): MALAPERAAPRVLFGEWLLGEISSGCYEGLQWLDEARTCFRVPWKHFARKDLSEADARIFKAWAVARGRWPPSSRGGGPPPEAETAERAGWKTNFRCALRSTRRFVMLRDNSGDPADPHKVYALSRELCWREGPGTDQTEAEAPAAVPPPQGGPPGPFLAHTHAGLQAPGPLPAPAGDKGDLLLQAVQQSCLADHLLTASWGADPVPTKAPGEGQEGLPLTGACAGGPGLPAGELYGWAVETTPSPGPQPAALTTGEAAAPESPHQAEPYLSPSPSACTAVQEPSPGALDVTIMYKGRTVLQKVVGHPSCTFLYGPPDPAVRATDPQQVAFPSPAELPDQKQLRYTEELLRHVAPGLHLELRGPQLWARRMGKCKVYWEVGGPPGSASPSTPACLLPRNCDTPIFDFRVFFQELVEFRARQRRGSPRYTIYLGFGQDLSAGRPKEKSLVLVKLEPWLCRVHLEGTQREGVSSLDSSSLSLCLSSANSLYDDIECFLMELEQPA
Method: protein-binding microarray
Form: double-stranded DNA, one strand shown
Sample: in vitro
Tested at: 2200 nM top
Setting: 60-bp whole probe
Together with: salmon DNA 0.4 mg/ml
Baseline: random background probes
Direction: higher = stronger binding
Quantity: fitted relative affinity
All sequences stand within: GCCTAGCAC … GTCTTGATTCGCTTGACGCTGCTG
GACGATCTCAGTAACGAGACGTGCTAG: 0.0217 z-score
TCAAGTTTGACATCTTCAACTGTGCTA: 0.192 z-score
GACGGTTTCGGGTATCGGGTCGTGCTA: 6.53 z-score
TCACCTCTGCTCCTCTTACTGTGCTAG: 2.31 z-score
GACGCTATCCTTTTCCTGACGTGCTAG: 1.93 z-score
GAAGGACTGGGTTTCGGGACGTGCTAG: 1.16 z-score
TTAAGTATCGACTTTCGGTTAGTGCTA: 6.57 z-score
TTAGGTCTCGGGTTTCGGTTAGTGCTA: 3.61 z-score
GACGATATCAGTTTGGAGACGTGCTAG: 0.289 z-score
GGACCGCGACCTGCCAAGTCGTGCTAG: -0.78 z-score
GACGGTCTCCTAATGCTGACGTGCTAG: 0.459 z-score
GACGGTATCCTTATCCTCACGTGCTAG: 0.95 z-score
TTAGGTTCCCTTTTCTTTTAGTGCTAG: 2.68 z-score
GACGATATCAGTTTCGAGCCGTGCTAG: 2.83 z-score
TTAGGACTGGGTTTCCGTTAGTGCTAG: 0.781 z-score
TTAGATATCGCGTTTCGATTAGTGCTA: 2.06 z-score
TTAGGTTTCGGACTGGTTTAGTGCTAG: 3.23 z-score
AGACCTTGCTTTATGTGTAGGTGCTAG: 0.548 z-score

Single results of other studies
PhoQ, residues 284 288 289 292 302 303 NLMGRA
fold induction (PhoP, residues 12 14 15 18 19 TPWLV (Escherichia coli, UniProt P23836); Sort-seq, item: YFP reporter; E. coli; PhoQ-PhoP variant library, together with: 10 µM Mg2+; baseline: high Mg2+ state, higher = stronger signaling): 4.93

Some of these lines once more (series 4):
AAAGCTCT: -0.103
AGTCAATC: 0.0406
TAGCCCCA: -0.179
AAGGTAGA: 0.133
AAGTTTTC: 0.174
CGGAGAGA: -0.244
